# Results collected from several papers.
# Compare with care: the assays were run in different laboratories. “And” joins repeats or separate records; there may be more than shown. ± marks the error that the study gave.
# Chain of UniProt P33261 (whole entry, looked up): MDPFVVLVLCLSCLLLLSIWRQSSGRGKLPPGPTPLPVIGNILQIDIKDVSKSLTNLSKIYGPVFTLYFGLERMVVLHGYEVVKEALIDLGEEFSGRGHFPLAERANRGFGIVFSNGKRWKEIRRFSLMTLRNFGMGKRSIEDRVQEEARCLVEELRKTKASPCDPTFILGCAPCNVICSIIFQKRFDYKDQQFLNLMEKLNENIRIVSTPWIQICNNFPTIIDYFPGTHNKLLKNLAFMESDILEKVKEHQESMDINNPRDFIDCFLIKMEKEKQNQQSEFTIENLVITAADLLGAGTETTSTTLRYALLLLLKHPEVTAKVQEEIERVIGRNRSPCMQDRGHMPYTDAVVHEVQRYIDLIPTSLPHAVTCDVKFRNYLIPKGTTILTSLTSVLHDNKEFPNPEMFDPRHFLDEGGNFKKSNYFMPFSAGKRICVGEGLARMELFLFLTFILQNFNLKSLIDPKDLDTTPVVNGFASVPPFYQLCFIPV
# Chain of UniProt Q06187 (whole entry, looked up): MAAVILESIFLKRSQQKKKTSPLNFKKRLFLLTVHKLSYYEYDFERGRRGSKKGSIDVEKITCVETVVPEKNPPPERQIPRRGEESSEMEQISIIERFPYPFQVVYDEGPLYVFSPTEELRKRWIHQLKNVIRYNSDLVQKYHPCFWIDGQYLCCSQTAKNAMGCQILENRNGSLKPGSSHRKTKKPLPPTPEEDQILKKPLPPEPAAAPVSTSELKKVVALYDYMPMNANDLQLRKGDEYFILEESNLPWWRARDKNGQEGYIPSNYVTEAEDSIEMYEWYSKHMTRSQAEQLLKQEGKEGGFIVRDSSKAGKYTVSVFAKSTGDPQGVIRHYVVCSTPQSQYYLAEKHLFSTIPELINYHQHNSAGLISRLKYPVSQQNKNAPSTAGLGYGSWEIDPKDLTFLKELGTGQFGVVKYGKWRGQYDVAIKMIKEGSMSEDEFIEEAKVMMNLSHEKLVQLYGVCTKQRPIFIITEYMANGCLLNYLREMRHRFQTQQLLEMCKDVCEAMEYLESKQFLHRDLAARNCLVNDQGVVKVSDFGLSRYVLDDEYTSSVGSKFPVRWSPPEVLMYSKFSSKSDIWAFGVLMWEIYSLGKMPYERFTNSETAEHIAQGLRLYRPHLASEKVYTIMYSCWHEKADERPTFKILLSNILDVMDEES
# Chain of UniProt Q96PY6 (whole entry, looked up): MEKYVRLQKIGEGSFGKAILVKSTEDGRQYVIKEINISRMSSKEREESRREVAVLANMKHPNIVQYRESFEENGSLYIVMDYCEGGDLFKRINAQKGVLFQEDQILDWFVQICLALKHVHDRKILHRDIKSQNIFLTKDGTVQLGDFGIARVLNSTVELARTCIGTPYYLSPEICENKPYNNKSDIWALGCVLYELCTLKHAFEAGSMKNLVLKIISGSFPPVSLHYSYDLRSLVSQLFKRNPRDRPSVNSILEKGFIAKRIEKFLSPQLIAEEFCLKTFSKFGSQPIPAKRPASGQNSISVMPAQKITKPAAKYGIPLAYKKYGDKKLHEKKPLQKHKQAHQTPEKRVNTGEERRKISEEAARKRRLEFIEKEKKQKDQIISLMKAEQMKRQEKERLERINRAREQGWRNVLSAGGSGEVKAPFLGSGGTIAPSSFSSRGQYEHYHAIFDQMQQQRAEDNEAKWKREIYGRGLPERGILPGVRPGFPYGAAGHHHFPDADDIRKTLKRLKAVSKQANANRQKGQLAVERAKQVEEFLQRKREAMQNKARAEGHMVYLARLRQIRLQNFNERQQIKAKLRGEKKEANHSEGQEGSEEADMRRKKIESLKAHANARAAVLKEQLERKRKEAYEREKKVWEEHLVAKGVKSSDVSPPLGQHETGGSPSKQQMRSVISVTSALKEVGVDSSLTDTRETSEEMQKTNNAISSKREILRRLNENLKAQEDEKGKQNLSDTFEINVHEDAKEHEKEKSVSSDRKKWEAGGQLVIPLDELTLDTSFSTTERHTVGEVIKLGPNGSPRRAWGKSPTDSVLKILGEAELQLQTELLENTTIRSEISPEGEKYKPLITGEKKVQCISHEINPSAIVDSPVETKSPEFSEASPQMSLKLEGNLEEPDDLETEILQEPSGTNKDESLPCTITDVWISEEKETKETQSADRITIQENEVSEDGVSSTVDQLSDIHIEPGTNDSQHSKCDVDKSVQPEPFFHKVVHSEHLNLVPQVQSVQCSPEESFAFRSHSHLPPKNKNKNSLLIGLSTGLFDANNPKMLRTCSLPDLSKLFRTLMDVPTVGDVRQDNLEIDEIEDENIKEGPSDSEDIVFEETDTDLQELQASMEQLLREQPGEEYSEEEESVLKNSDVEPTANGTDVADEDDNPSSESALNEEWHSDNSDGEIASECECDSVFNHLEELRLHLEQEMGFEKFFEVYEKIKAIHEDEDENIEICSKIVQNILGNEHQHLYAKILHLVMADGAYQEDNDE
SMILES,target or system,test,test system,conditions,how to read,measurement,value
N#[11C]c1ccc(-c2csc(NN=C3CCCC3)n2)cc1,,,"C57BL/6 mice, male, brain","intravenous, 3 MBq, 5 min",,radioactivity uptake,2.85 ± 0.38 %ID/g
CC(=O)NCCCC[C@@H]1NC(=O)[C@H](Cc2c[nH]c3c(C)cccc23)NC(=O)[C@H]([C@@H](C)O)NC(=O)[C@H](CC(N)=O)NC(=O)[C@@H](NC(C)=O)C(C)(C)SSC(C)(C)[C@@H](C(=O)N[C@@H](Cc2ccc(OCCN)cc2)C(=O)N[C@@H](Cc2ccc3ccccc3c2)C(=O)NC2(C(=O)N[C@@H](CCC(=O)O)C(=O)N[C@@H](CC(N)=O)C(=O)N[C@@H](Cc3cccnc3)C(=O)N(C)CC(N)=O)CCOCC2)NC1=O,,equilibrium dialysis,"mouse, plasma",0.01 µM,,plasma protein binding,56 ± 2.5%
C=CC(=O)Nc1cccc(Cn2ncc3cnc(Nc4cnn(CCOC)c4)nc32)c1,,,female Sprague-Dawley rat,"oral, 180 mg/kg/day, day 28, 28-day subacute toxicity",,blood MPV,5.84 ± 0.29 fL
COc1ccccc1-c1n[nH]c2nc(NC3CCN(C(=O)Cc4ccc(F)cc4F)CC3)ncc12,,"bead binding, competition bead pull-down, item: LMJF.35.0370",Leishmania donovani extract,10 µM,reference: vehicle,relative abundance,0.95
CN(C)[C@H]1C[C@@]23CC[C@@]4(O2)C(=CC[C@]2(C)[C@@H](c5ccc6ccncc6c5)CC[C@H]24)C=C3[C@@H](O)[C@@H]1O,"NEK1 (Homo sapiens, UniProt Q96PY6)","ATP probe labelling, inhibitor, KiNativ profiling",,1 µM,,inhibition,2.5%
CCCCCCCCCCCCCCCC(=O)OCC(CSC[C@H](N)C(=O)N[C@@H](CO)C(=O)N[C@@H](CCCCN)C(=O)N[C@@H](CCCCN)C(=O)N[C@@H](CCCCN)C(=O)N[C@@H](CCCCN)C(=O)NCCCCCC(=O)N[C@@H](CCCCN)C(=O)N[C@@H](CC(C)C)C(=O)N[C@H](C(=O)N[C@@H](Cc1ccccc1)C(=O)N[C@@H](Cc1ccccc1)C(=O)N[C@@H](Cc1ccc2ccccc2c1)C(=O)O)C(C)C)OC(=O)CCCCCCCCCCCCCCC (stereo partly drawn),,,"C57BL/6J mouse, serum","intraperitoneal, dose not given",,serum ALT,21.3 U/L and 11.9 U/L and 12.3 U/L and 12.5 U/L and 21.6 U/L
CSCC[C@H](NC(=O)CNC(=O)[C@H](CCCCN)NC(=O)[C@H](CC(C)C)NC(=O)[C@@H]1CCCN1C(=O)[C@H](CO)NC(=O)[C@H](Cc1c[nH]cn1)NC(=O)[C@H](Cc1c[nH]c2ccccc12)NC(=O)[C@H](CCCNC(=N)N)NC(=O)[C@H](CC(C)C)NC(=O)[C@H](CCCNC(=N)N)NC(=O)[C@H](Cc1c[nH]c2ccccc12)NC(=O)[C@H](CS)NC(=O)CCCCCNC(=O)CN1CCN(CC(=O)O)CCN(CC(=O)O)CCN(CC(=O)O)CC1)C(=O)O [copper-64 labelled],,ex vivo biodistribution,"male C57BL/6J mice, pancreas","intravenous, 1.85 MBq, 18 h, B16-F10 tumour-bearing",,tissue uptake,1.03 %ID/g
CC(C)[C@@H]1NC(=O)CNC(=O)[C@H](CC(N)=O)NC(=O)[C@H](CCCNC(=N)N)NC(=O)[C@H](Cc2ccc(O)cc2)NC(=O)[C@H](C(C)C)NC(=O)[C@@H](NC(=O)[C@@H](NC(=O)[C@H](CC(N)=O)NC(=O)[C@H](Cc2c[nH]c3ccccc23)NC(=O)[C@H](C)NC(=O)[C@H](Cc2ccccc2)NC(=O)CNC(=O)[C@H](CCCCN)NC(=O)[C@H](Cc2ccccc2)NC(=O)[C@H](Cc2ccccc2)NC(=O)[C@H](CCCCN)NC(=O)OCC2c3ccccc3-c3ccccc32)C(C)C)CSSC[C@@H](C(=O)N[C@@H](Cc2c[nH]cn2)C(=O)N[C@@H](CCCNC(=N)N)C(=O)N[C@@H](CCCNC(=N)N)C(=O)N[C@@H](C)C(=O)N[C@@H](CC(N)=O)C(N)=O)NC(=O)[C@H](C(C)C)NC(=O)[C@H](CCCNC(=N)N)NC1=O,,,"ICR mice, serum","intraductal mammary, 5 mg/kg, day 5",,total protein,53.9 ± 1.3 g/L
CCCC[C@H]1C(=O)N(C)[C@@H](CCCC)C(=O)N[C@@H](CCCNC(=O)CN2CCN(CC(=O)O)CCN(CC(=O)O)CCN(CC(=O)O)CC2)C(=O)N[C@H](C(=O)NCC(N)=O)CSCC(=O)N[C@@H](Cc2ccc(O)cc2)C(=O)N(C)[C@@H](C)C(=O)N[C@@H](CC(N)=O)C(=O)N2CCC[C@H]2C(=O)N[C@@H](Cc2c[nH]cn2)C(=O)N[C@@H](CC(C)C)C(=O)N(C)CC(=O)N[C@@H](Cc2c[nH]c3ccccc23)C(=O)N[C@@H](CO)C(=O)N[C@@H](Cc2c[nH]c3ccccc23)C(=O)N1C [gallium-68 labelled],,radio-HPLC,fetal bovine serum,"120 min, 37 °C",,radiochemical purity,94.9%
CC[C@H](C)[C@H](NC(=O)[C@H](CCCCN)NC(=O)CNC(=O)[C@H](CC(C)C)NC(=O)[C@H](Cc1ccccc1)NC(=O)[C@H](CCCCN)NC(=O)[C@H](CO)NC(=O)[C@H](Cc1ccccc1)NC(=O)[C@H](Cc1c[nH]c2ccccc12)NC(=O)[C@H](CCC(N)=O)NC(=O)[C@@H](NC(=O)[C@H](Cc1ccccc1)NC(=O)CCCCCNC(=O)CN1CCN(CC(=O)O)CCN(CC(=O)O)CCN(CC(=O)O)CC1)C(C)C)C(=O)N[C@@H](CCC(=O)O)C(=O)N1CCC[C@H]1C(=O)N[C@@H](CC(=O)O)C(=O)N[C@H](C(=O)N[C@@H](CO)C(=O)N[C@@H](CCC(N)=O)C(=O)N[C@H](C(=O)N[C@@H](CCC(N)=O)C(=O)N[C@@H](CC(=O)O)C(=O)N1CCC[C@H]1C(=O)N[C@@H](CC(N)=O)C(=O)N[C@@H](CC(=O)O)C(=O)N[C@@H](CCC(N)=O)C(=O)N[C@@H](Cc1ccc(O)cc1)C(=O)N[C@@H](CCC(=O)O)C(=O)N1CCC[C@H]1C(=O)N[C@@H](Cc1ccccc1)C(=O)O)C(C)C)C(C)C [copper-64 labelled],,dynamic PET,"mouse, CT26 tumour, untreated, tumour","intravenous, 100 µCi/mouse, 2820 s",,SUVmean,1.21 SUV
C#Cc1c(F)ccc2cc(O)cc(-c3ncc4c(N5CC6CCC(C5)N6C(=O)OC(C)OC(=O)C(CC)CCCC)nc(OC[C@@]56CCCN5C[C@H](F)C6)nc4c3F)c12 (stereo partly drawn),,chemical stability,simulated intestinal fluid,"1 µM, 30 min",,compound remaining,100%
CN1Cc2cc(Cl)ccc2-n2c(nnc2C2CCN(c3cccc([18F])n3)CC2)C1,,,"C57BL/6 mouse male, stomach","intravenous, 3.7 MBq, 15 min",,tissue uptake,12.9 ± 2.82 %ID/g
CC(C)(C)C(=O)OCOP(=O)(OCOC(=O)C(C)(C)C)C1CCCN(O)C1=O (stereo not drawn),NCI-H23,,,,,log TGI,-5.47 log M
COc1ccccc1-c1n[nH]c2nc(N[C@H]3CC[C@H](NS(=O)(=O)CC(C)C)CC3)ncc12,,"bead binding, competition bead pull-down, item: LINJ.36.6960",Leishmania donovani extract,10 µM,reference: vehicle,relative abundance,1.07
CS(C)(=O)=Nc1ccc(-c2ccc(-c3nc4cc(O[C@@H]5CO[C@H]6[C@@H]5OC[C@H]6O)[nH]c4cc3F)cc2)cc1,"BTK (Homo sapiens, UniProt Q06187)","enzyme activity, inhibitor",,10 µM,,inhibition,3%
O=C1NC2(CC2)COc2ncc(F)cc2[C@H]2COCCN2c2ccn3ncc1c3n2,,,"Sprague-Dawley rat, female, spleen","oral, 5 mg/kg/day, 4 weeks dosing, end of recovery",,organ-to-body weight ratio,0.257 ± 0.042%
Cc1cc(-c2ccc3ccccc3c2)nnc1NCCN1CCN(C)CC1,"CYP2C19 (Homo sapiens, UniProt P33261)",substrate,recombinant enzyme,"100 nM, 0.5 h",,remaining compound,92%
Cc1ccc(OCC(=O)N(Cc2cccs2)c2ccn[nH]2)cc1,,in vivo micronucleus,"Crl:CD-1(ICR) mice, male, bone marrow polychromatic erythrocytes","oral, 1000 mg/kg/day, 3 days",,micronucleated PCEs,0.03 ± 0.03%

# For quick reference, copied from above:
SMILES,target or system,test,test system,conditions,how to read,measurement,value
N#[11C]c1ccc(-c2csc(NN=C3CCCC3)n2)cc1,,,"C57BL/6 mice, male, brain","intravenous, 3 MBq, 5 min",,radioactivity uptake,2.85 ± 0.38 %ID/g
CC(=O)NCCCC[C@@H]1NC(=O)[C@H](Cc2c[nH]c3c(C)cccc23)NC(=O)[C@H]([C@@H](C)O)NC(=O)[C@H](CC(N)=O)NC(=O)[C@@H](NC(C)=O)C(C)(C)SSC(C)(C)[C@@H](C(=O)N[C@@H](Cc2ccc(OCCN)cc2)C(=O)N[C@@H](Cc2ccc3ccccc3c2)C(=O)NC2(C(=O)N[C@@H](CCC(=O)O)C(=O)N[C@@H](CC(N)=O)C(=O)N[C@@H](Cc3cccnc3)C(=O)N(C)CC(N)=O)CCOCC2)NC1=O,,equilibrium dialysis,"mouse, plasma",0.01 µM,,plasma protein binding,56 ± 2.5%
C=CC(=O)Nc1cccc(Cn2ncc3cnc(Nc4cnn(CCOC)c4)nc32)c1,,,female Sprague-Dawley rat,"oral, 180 mg/kg/day, day 28, 28-day subacute toxicity",,blood MPV,5.84 ± 0.29 fL
